Earlier results that unrelated publications cite.
Protocols differ between the studies behind these lines. ± gives the spread as reported. Converted amounts (≈) assume the structure as drawn.

SMILES | tested on | assay | test system | conditions | how to read | endpoint | result
COc1ccc(C=C2SC(=N)N(c3ccccc3OC)C2=O)cc1 | Plasmodium falciparum | whole cell extended time | 3D7 | 72 h |  | IC50 | 300 nM
O=c1c(O)c(-c2ccc(O)c(O)c2)oc2cc(O)cc(O)c12 | VZV | viral replication |  |  |  | IC50 | 12700 nM
CNC(C)C1CCC(N)C(OC2C(N)CC(N)C(OC3OCC(C)(O)C(NC)C3O)C2O)O1 (centres unmarked) | Enterobacter cloacae |  | clinical isolate RKI-No_546/13 |  |  | MIC | 4 µg/mL (≈ 8.38 µM)
CC(C)C[C@H](NC(=O)[C@H](Cc1cccc2ccccc12)NC(=O)OCc1ccccc1)C(=O)N[C@H](C=O)C[C@@H]1CCNC1=O | Norwalk virus | viral replication | HG23, GI.1 replicon |  |  | EC50 | 40 nM
CC(C)(C#Cc1ccc(-c2ccc(Cl)c3c(NS(C)(=O)=O)nn(CC(F)(F)F)c23)c([C@H](Cc2cc(F)cc(F)c2)NC(=O)Cn2nc(C(F)(F)F)c3c2C(F)(F)[C@@H]2C[C@H]32)n1)S(C)(=O)=O | HIV-1 | viral replication | wild type |  |  | EC50 | 0.13 nM
[N-]=[N+]=N[C@]1(CO)O[C@@H](n2ccc(N)nc2=O)[C@@H](F)[C@@H]1O | HIV-1 | viral replication | Hut/CCR5 |  |  | EC50 | 0.014 nM
Cl.N=C(CC(O)c1cc2c(F)cc(F)cc2c2cc(C(F)(F)F)ccc12)Nc1ccc(F)c(F)c1 (centres unmarked) | Plasmodium berghei |  | ANKA, mouse | oral, 50 mg/kg, four doses |  | cure rate | 100%
CCOC(=O)C(c1c(O)ccc2ccccc12)N1CCOCC1 (centres unmarked) | Staphylococcus aureus | efflux pump inhibition | ATCC 25923 | 50 µM | reference: untreated cells | relative fluorescence index | 1.1
N#COCCOc1ccc(Oc2ccccc2)cc1 | Trypanosoma cruzi | parasite growth | intracellular amastigotes |  |  | EC50 | > 10000 nM
Cc1[nH]c(C)c(-c2ccc(-c3ccc(OC(F)(F)F)cc3)cc2)c(=O)c1Cl | Plasmodium falciparum | whole cell extended time | 3D7 | 72 h |  | IC50 | 40 nM
CCc1c(Cl)c(O)c(Cl)c(O)c1C(=O)O[C@H]1[C@H](O)[C@H](OC)[C@H](OC/C2=C\C=C\C[C@H](O)/C(C)=C/[C@H](CC)[C@@H](O[C@@H]3OC(C)(C)[C@@H](OC(=O)C(C)C)[C@H](O)[C@@H]3O)/C(C)=C/C(C)=C/C[C@@H]([C@@H](C)O)OC2=O)O[C@@H]1C | Enterobacter aerogenes |  | ATCC 35029 |  |  | MIC | > 128 µg/mL
Nc1cc(C(F)(F)F)c(-c2nc(N3CCOCC3)nc(N3CCOCC3)n2)cn1 | STE20/SPS1-related proline-alanine-rich protein kinase (STK39, Homo sapiens, UniProt Q9UEW8) | enzyme activity |  | 10 µM | reference: untreated | remaining activity | 100%
Cc1cc(C)c2cc(CNCCCNc3nc4ccccc4[nH]3)[nH]c2c1 | Plasmodium falciparum | whole cell extended time | 3D7 | 72 h |  | IC50 | 770 nM
Cn1nc(C(F)(F)F)cc1C(=O)Nc1ccc(S(=O)(=O)N2CCCCC2)cc1 | measles virus | viral yield reduction |  |  |  | EC50 | 14 ± 20 nM
C[C@H]1COCCN1c1nc(-c2cnc(N)cc2C(F)F)nc(N2CCOCC2)n1 | Jurkat E6-1 |  |  |  |  | GI50 | 1130 nM
CCC(C)(C)C1CCc2[nH]c3ccccc3c(=O)c2C1 (centres unmarked) | Plasmodium falciparum | whole cell extended time | 3D7 | 72 h |  | IC50 | 380 nM
C[C@H](Cn1cnc2c(N)ncnc21)OCP(=O)(O)O | Human immunodeficiency virus | viral replication |  |  |  | EC50 | 50 ng/mL
O=C(C1CCCCC1)N1CC(=O)N2CCc3ccccc3[C@@H]2C1 | Schistosoma mansoni |  | infected mice | 200 mg/kg | reference: untreated | worm burden reduction | 98%
CC1(C)NC(=O)N(c2ccc(F)c(C(C)(F)F)c2)C1=O | Schistosoma mansoni |  | juvenile, infected mice | oral, 50 mg/kg single dose |  | worm burden reduction | 50%
Cc1[nH]c(C)c(-c2cccc(-c3ccc(OC(F)(F)F)cc3)c2)c(=O)c1Br | Plasmodium falciparum | whole cell extended time | 3D7 | 72 h |  | IC50 | 410 nM
Oc1ccc(-c2nc(-c3ccc(OC4CCCC4)cc3)no2)cc1 | Enterobacter aerogenes |  | ATCC 35029 |  |  | MIC | > 128 µg/mL
CC(=O)Oc1ccccc1C(=O)Nc1ncc([N+](=O)[O-])s1 | Cryptosporidium parvum | parasite growth |  |  |  | EC50 | 3800 nM
COCCN(C)c1ccc(C(=O)Nc2ccccc2)cc1NS(=O)(=O)Cc1ccccc1 | Plasmodium falciparum | whole cell extended time | 3D7 | 72 h |  | IC50 | 570 nM
Oc1ccc(-c2nc(-c3ccc(OC4CCCC4)cc3)no2)cc1 | Pseudomonas aeruginosa |  | ATCC 27853 |  |  | MIC | > 128 µg/mL
CCc1c(Cl)c(O)c(Cl)c(O)c1C(=O)O[C@H]1[C@H](O)[C@H](OC)[C@H](OC/C2=C\C=C\C[C@H](O)/C(C)=C/[C@H](CC)[C@@H](O[C@@H]3OC(C)(C)[C@@H](OC(=O)C(C)C)[C@H](O)[C@@H]3O)/C(C)=C/C(C)=C/C[C@@H]([C@@H](C)O)OC2=O)O[C@@H]1C | Clostridioides difficile |  | NAP7 ribotype 078 |  |  | MIC | ≤ 0.01 µg/mL
Cc1[nH]c(C)c(-c2ccc(OCc3cc(F)cc(F)c3)nc2)c(=O)c1Br | Plasmodium falciparum | whole cell extended time | 3D7 | 72 h |  | IC50 | 100 nM
Cc1cnc(N2CC3(CCOCC3)C2)c(C(=O)Nc2ccc(C(=O)N3CCc4cc(C(=O)Nc5c(C)cccc5F)sc4-c4ccccc43)cc2)c1 | respiratory syncytial virus | cytopathic effect | 5 subtype B clinical isolates |  |  | median IC50 | 20.2 ng/mL
Cc1[nH]cc(Br)c(=O)c1-c1ccc(Oc2ccc(OC(F)(F)F)cc2)cc1 | Plasmodium falciparum | whole cell extended time | 3D7 | 72 h |  | IC50 | 330 nM
CC1(C)S[C@@H]2[C@H](NC(=O)[C@H](N)c3ccccc3)C(=O)N2[C@H]1C(=O)O | Enterobacter cloacae |  | clinical isolate RKI-No_210/15 |  |  | MIC | > 16 µg/mL

Excerpt of the above:
SMILES | tested on | assay | test system | conditions | how to read | endpoint | result
Oc1ccc(-c2nc(-c3ccc(OC4CCCC4)cc3)no2)cc1 | Pseudomonas aeruginosa |  | ATCC 27853 |  |  | MIC | > 128 µg/mL
CCc1c(Cl)c(O)c(Cl)c(O)c1C(=O)O[C@H]1[C@H](O)[C@H](OC)[C@H](OC/C2=C\C=C\C[C@H](O)/C(C)=C/[C@H](CC)[C@@H](O[C@@H]3OC(C)(C)[C@@H](OC(=O)C(C)C)[C@H](O)[C@@H]3O)/C(C)=C/C(C)=C/C[C@@H]([C@@H](C)O)OC2=O)O[C@@H]1C | Clostridioides difficile |  | NAP7 ribotype 078 |  |  | MIC | ≤ 0.01 µg/mL
